{"data": "Assay results from different studies", "gpmI": "2,3-bisphosphoglycerate-independent phosphoglycerate mutase (gpmI, Mycoplasma pneumoniae, UniProt P75167)", "CNR2 L182I": "Cannabinoid receptor 2 (CNR2, Homo sapiens, UniProt P34972, L182I)", "4'-phosphopantetheinyl transferase PptT": "4'-phosphopantetheinyl transferase PptT (Mycobacterium tuberculosis, UniProt O33336)", "2,3-bisphosphoglycerate-independent phosphoglycerate mutase": "2,3-bisphosphoglycerate-independent phosphoglycerate mutase (Wuchereria bancrofti, UniProt B1P0R4)", "note": "Each line is one published result; not all experiments were run side by side. Numbers after ± are the reported error.", "UniProt O33336, sequence (whole entry, looked up)": "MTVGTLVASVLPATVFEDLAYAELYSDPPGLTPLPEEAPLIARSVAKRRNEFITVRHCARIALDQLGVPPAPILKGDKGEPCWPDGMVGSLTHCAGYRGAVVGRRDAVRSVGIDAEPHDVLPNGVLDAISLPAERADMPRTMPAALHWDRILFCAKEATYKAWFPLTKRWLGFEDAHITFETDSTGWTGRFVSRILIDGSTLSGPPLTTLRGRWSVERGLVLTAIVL", "UniProt P75167, sequence (whole entry, looked up)": "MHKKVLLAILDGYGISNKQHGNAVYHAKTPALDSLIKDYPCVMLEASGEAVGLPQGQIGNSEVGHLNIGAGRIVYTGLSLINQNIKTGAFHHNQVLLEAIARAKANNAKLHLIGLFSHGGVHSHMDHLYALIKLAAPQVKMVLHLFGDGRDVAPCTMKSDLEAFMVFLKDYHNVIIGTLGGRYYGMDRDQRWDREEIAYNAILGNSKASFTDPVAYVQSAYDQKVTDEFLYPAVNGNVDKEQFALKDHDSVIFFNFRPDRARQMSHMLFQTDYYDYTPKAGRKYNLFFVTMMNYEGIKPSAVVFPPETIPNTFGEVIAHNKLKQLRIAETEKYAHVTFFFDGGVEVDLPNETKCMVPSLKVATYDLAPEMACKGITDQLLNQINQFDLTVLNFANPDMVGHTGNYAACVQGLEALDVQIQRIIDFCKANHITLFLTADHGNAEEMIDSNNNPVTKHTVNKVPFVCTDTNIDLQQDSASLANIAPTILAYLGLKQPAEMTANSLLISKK", "UniProt P34972, sequence (whole entry, unmodified, looked up)": "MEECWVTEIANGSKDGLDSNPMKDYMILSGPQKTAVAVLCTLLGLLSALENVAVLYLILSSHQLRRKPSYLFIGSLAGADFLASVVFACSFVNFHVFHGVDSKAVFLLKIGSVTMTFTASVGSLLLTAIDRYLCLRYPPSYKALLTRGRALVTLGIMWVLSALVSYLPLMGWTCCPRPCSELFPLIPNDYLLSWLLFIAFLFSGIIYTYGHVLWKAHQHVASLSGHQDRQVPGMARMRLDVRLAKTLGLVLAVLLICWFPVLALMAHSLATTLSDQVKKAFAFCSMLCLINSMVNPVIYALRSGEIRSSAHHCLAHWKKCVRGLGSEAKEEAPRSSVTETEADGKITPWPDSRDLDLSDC", "UniProt P41149, sequence (whole entry, looked up)": "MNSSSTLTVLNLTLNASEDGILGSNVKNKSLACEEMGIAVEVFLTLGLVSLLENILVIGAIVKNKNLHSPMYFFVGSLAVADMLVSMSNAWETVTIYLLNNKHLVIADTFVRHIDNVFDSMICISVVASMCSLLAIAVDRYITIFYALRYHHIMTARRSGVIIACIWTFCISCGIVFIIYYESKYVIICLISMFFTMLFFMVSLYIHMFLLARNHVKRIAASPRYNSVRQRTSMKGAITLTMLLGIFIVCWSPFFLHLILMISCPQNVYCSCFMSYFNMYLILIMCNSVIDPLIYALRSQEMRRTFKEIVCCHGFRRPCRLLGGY", "UniProt P9WFK7, sequence (whole entry, looked up)": "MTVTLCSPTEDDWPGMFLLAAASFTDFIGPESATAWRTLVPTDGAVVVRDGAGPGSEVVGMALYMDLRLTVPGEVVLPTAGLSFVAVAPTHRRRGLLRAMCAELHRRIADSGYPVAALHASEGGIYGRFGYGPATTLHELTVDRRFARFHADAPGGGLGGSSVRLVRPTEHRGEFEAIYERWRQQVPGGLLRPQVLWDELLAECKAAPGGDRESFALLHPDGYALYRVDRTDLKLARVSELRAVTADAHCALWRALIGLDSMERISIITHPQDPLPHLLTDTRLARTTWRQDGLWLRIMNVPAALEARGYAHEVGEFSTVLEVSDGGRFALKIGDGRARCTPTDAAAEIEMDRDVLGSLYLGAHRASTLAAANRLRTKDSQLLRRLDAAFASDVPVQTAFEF", "UniProt P21709, sequence (whole entry, looked up)": "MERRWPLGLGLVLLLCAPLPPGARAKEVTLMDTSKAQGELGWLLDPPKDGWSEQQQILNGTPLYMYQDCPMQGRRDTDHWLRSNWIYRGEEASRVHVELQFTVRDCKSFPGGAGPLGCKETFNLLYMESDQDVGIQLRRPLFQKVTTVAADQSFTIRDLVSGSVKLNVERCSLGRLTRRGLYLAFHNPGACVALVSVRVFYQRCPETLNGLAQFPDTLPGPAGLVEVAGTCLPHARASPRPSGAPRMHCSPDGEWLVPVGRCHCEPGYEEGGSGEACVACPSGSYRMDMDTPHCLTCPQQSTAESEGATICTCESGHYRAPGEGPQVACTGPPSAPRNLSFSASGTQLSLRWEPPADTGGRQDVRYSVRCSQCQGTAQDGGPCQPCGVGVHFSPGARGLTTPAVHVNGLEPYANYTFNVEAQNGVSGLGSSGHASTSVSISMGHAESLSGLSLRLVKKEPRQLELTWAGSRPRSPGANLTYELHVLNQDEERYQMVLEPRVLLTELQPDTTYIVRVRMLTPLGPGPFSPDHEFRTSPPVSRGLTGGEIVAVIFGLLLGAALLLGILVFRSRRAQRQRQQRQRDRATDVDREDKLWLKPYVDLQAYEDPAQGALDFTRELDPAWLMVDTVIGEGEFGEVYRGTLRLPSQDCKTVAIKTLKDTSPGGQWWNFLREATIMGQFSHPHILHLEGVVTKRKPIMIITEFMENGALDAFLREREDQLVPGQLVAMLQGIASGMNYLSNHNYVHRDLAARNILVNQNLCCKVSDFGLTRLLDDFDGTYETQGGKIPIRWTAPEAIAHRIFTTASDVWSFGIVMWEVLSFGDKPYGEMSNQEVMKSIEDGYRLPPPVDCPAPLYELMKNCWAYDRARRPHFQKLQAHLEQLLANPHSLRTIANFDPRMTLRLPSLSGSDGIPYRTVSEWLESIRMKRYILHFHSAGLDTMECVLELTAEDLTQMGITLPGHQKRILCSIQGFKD", "UniProt P33261, sequence (whole entry, looked up)": "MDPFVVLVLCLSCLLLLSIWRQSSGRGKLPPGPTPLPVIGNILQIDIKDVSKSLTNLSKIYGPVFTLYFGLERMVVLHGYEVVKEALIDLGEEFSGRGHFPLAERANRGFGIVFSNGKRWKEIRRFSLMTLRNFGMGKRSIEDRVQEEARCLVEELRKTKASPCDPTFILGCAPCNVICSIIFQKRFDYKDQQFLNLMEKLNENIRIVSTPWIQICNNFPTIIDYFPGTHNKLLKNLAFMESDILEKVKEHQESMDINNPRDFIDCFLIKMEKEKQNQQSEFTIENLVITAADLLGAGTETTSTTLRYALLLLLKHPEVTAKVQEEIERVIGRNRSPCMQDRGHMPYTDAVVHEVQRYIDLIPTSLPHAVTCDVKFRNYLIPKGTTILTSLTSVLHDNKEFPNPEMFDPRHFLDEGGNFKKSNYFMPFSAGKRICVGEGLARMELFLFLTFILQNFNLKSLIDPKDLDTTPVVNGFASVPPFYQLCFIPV", "UniProt P01902, sequence (whole entry, looked up)": "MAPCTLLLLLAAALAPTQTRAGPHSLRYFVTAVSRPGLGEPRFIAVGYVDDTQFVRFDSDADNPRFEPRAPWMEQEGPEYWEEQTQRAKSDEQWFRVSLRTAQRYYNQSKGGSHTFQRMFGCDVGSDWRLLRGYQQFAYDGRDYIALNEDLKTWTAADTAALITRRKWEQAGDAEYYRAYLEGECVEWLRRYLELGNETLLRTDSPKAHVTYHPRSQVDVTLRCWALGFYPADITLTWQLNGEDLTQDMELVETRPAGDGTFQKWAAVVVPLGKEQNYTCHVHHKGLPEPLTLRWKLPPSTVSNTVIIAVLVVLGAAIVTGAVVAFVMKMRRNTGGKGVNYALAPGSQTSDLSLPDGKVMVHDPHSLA"}
{"SMILES": "CN1C(=O)[C@H](CCC(=O)O)NC(=O)[C@H](Cc2ccc(O)cc2)NC(=O)[C@H](CCCNC(=N)N)NC(=O)[C@@H](Cc2ccc(O)cc2)NC(=O)CSC[C@@H](C(N)=O)NC(=O)[C@H](CCCCN)NC(=O)[C@@H]2CCCN2C(=O)[C@H](CS)NC(=O)[C@H](CCC(=O)O)NC(=O)[C@H](Cc2ccc(O)cc2)N(C)C(=O)[C@H](CCCCN)NC(=O)[C@H](Cc2ccc(O)cc2)NC(=O)[C@@H]1Cc1ccc(O)cc1", "target or system": "gpmI", "assay": "biochemical", "endpoint": "AC50", "value": "1410 nM"}
{"SMILES": "CCCCCn1cc(C(=O)c2cccc3ccccc23)c2ccccc21", "target or system": "CNR2 L182I", "assay": "G protein activation, agonist, BRET", "endpoint": "EC50", "value": "4.17 nM"}
{"SMILES": "CC(=O)N[C@@H](CCCNC(=N)N)C(=O)N[C@@H](CCCNC(=N)N)C(=O)N[C@H](Cc1ccc(I)cc1)C(=O)N[C@H](C(N)=O)[C@@H](c1ccccc1)c1c[nH]c2ccccc12", "target or system": "Melanocortin receptor 5 (Mus musculus, UniProt P41149)", "assay": "cAMP, agonist, AlphaScreen", "endpoint": "EC50", "value": "600 nM"}
{"SMILES": "Cc1nc(=O)c2cc(CN(C)c3ccc(C(=O)NCc4ccccn4)s3)ccc2[nH]1", "target or system": "4'-phosphopantetheinyl transferase PptT", "assay": "enzyme activity, inhibitor, fluorescence polarization", "setting": "enzyme 100 nM", "endpoint": "IC50", "value": "2310 nM"}
{"SMILES": "CC[C@H](C)[C@H](NC(=O)[C@@H]1CCCN1C(=O)[C@H](CC(C)C)NC(=O)[C@@H](NC(=O)[C@H](CCSC)NC(=O)[C@H](CC(N)=O)NC(=O)[C@@H](NC(=O)[C@H](Cc1ccc(O)cc1)NC(=O)[C@@H](N)Cc1c[nH]cn1)[C@@H](C)CC)[C@@H](C)CC)C(=O)O", "target or system": "H-2 class I histocompatibility antigen, K-D alpha chain, 29 (H2-K1, Mus musculus, UniProt P01902)", "assay": "peptide binding to H-2K, competitor", "setting": "with: radiolabelled standard peptide", "endpoint": "IC50", "value": "0.23 nM"}
{"SMILES": "CNC(=O)C1CCN(c2ccccc2NC(=O)c2ccc(-c3cc(O)ccc3C)c(C)n2)CC1", "target or system": "EPHA1 (Homo sapiens, UniProt P21709)", "assay": "cell-free assay, TR-FRET", "endpoint": "Ki", "value": "4 nM"}
{"SMILES": "C[C@@H](O)[C@@H]1NC(=O)[C@H](CC(=O)O)NC(=O)[C@@H]2CCCN2C(=O)[C@H](Cc2ccc(O)cc2)NC(=O)CSC[C@@H](C(N)=O)NC(=O)[C@H](Cc2c[nH]cn2)NC(=O)[C@H](Cc2c[nH]c3ccccc23)NC(=O)[C@H](CCC(=O)O)NC(=O)[C@H](CC(=O)O)NC(=O)[C@H](Cc2ccc(O)cc2)NC(=O)[C@H](Cc2ccc(O)cc2)NC(=O)[C@H](Cc2c[nH]c3ccccc23)NC(=O)[C@H](Cc2c[nH]c3ccccc23)NC(=O)[C@H](CC(N)=O)NC1=O", "target or system": "2,3-bisphosphoglycerate-independent phosphoglycerate mutase", "assay": "biochemical", "endpoint": "AC50", "value": "33100 nM"}
{"SMILES": "CCCCCn1cc(C(=O)c2ccc3c(c2)CC(C)(C)C3)c2ccccc21", "target or system": "CNR2 L182I", "assay": "G protein activation, agonist, BRET", "endpoint": "EC50", "value": "44.7 nM"}
{"SMILES": "CC(C)[C@@H]1NC(=O)[C@H](CCCNC(=N)N)NC(=O)[C@H](Cc2ccc(O)cc2)NC(=O)[C@H](CO)NC(=O)[C@H](Cc2ccc(O)cc2)NC(=O)[C@H](CC(N)=O)NC(=O)CNC(=O)[C@H](Cc2ccc(O)cc2)NC(=O)[C@H](Cc2ccccc2)NC(=O)[C@H](CC(=O)O)NC(=O)[C@H](Cc2ccc(O)cc2)NC(=O)[C@H](Cc2ccccc2)NC(=O)[C@H](Cc2ccc(O)cc2)NC(=O)[C@H](Cc2ccc(O)cc2)NC(=O)CSC[C@@H](C(N)=O)NC(=O)[C@@H]2CCCN2C1=O", "target or system": "2,3-bisphosphoglycerate-independent phosphoglycerate mutase", "assay": "biochemical", "endpoint": "AC50", "value": "16600 nM"}
{"SMILES": "NCCCC[C@H](NC(=O)CNC(=O)CNC(=O)[C@H](CCCCN)NC(=O)CNC(=O)CNC(=O)CNC(=O)[C@H](CCCCN)NC(=O)CNC(=O)CNC(=O)[C@H](CCCCN)NC(=O)CNC(=O)CNC(=O)CNC(=O)[C@H](CCCCN)NC(=O)CNC(=O)CNC(=O)[C@H](CCCCN)NC(=O)CNC(=O)CNC(=O)CNC(=O)[C@H](CCCCN)NC(=O)CNC(=O)CNC(=O)[C@H](CCCCN)NC(=O)[C@H](CO)NC(=O)[C@H](Cc1ccc(O)cc1)NC(=O)CNC(=O)CNC(=O)CN)C(=O)NCC(=O)O", "assay": "binding, SPR two-state model", "system": "rVλ6Wil fibrils", "setting": "300 nM", "endpoint": "kd2", "value": "1.5e-05 s⁻¹"}
{"SMILES": "Cc1nc(=O)c2cc(CN(C)c3cccc(C(=O)N[C@@H](CCC(=O)O)C(=O)O)c3)ccc2[nH]1", "target or system": "4'-phosphopantetheinyl transferase PptT", "assay": "enzyme activity, inhibitor, FP", "endpoint": "IC50", "value": "< 100 nM"}
{"SMILES": "COc1ccc(C[C@@H]2NC(=O)[C@H](Cc3ccc(O)cc3)NC(=O)[C@H](CO)NC(=O)[C@H](CC(=O)O)NC(=O)[C@H](Cc3ccc(O)cc3)NC(=O)[C@H](Cc3c[nH]c4ccccc34)NC(=O)[C@@H](Cc3ccc(O)cc3)NC(=O)CSC[C@@H](C(N)=O)NC(=O)[C@H]([C@@H](C)O)NC(=O)[C@H](Cc3ccc(O)cc3)NC(=O)[C@H](CCC(N)=O)NC(=O)[C@H](C)NC(=O)[C@H]([C@@H](C)O)NC(=O)CNC(=O)[C@@H]3CCCN3C(=O)[C@H](Cc3ccc(O)cc3)NC2=O)cc1", "target or system": "gpmI", "assay": "biochemical", "endpoint": "AC50", "value": "22400 nM"}
{"SMILES": "Cc1sc(-n2c(C)c3c(C)nnc(C)c3c2C)nc1-c1ccc(Br)cc1", "target or system": "4'-phosphopantetheinyl transferase PptT", "assay": "enzyme activity, inhibitor, FP", "endpoint": "IC50", "value": "350 nM"}
{"SMILES": "CC(C)[C@@H]1NC(=O)[C@H](CO)N(C)C(=O)[C@H](Cc2c[nH]c3ccccc23)NC(=O)[C@H](CCC(=O)O)NC(=O)[C@H](CC(=O)O)NC(=O)[C@H](Cc2ccc(O)cc2)N(C)C(=O)[C@H](Cc2ccc(O)cc2)NC(=O)[C@H](Cc2c[nH]c3ccccc23)NC(=O)[C@H](Cc2c[nH]c3ccccc23)NC(=O)[C@H](CC(=O)O)NC(=O)CNC(=O)[C@H](CO)NC(=O)[C@@H](Cc2ccc(O)cc2)NC(=O)CSC[C@@H](C(N)=O)NC(=O)CN(C)C(=O)[C@H](Cc2ccccc2)N(C)C(=O)[C@H](C)NC1=O", "target or system": "gpmI", "assay": "biochemical", "endpoint": "AC50", "value": "24.5 nM"}
{"SMILES": "CCCCCc1cc(O)c2c(c1)OC(C)(C)C1CCC(C)=CC21 (single isomer, unassigned; (-))", "target or system": "CYP2C19 (Homo sapiens, UniProt P33261)", "assay": "enzyme activity, inhibitor", "system": "human, liver microsomes", "setting": "pH 7.4", "endpoint": "Ki", "value": "4100 nM"}
{"SMILES": "CCCC[C@H]1C(=O)N2CCC[C@H]2C(=O)N[C@H](C(N)=O)CSCC(=O)N[C@@H](Cc2ccc(O)cc2)C(=O)N(C)[C@@H](Cc2ccc(OC)cc2)C(=O)N[C@@H](CCCNC(=N)N)C(=O)N(C)[C@@H](Cc2ccccc2)C(=O)N[C@@H](CC(=O)O)C(=O)N(C)[C@@H](CO)C(=O)N(C)[C@@H](Cc2ccc(O)cc2)C(=O)N[C@@H](CCC(N)=O)C(=O)N[C@@H](CO)C(=O)N(C)[C@@H](CO)C(=O)N(C)[C@@H](Cc2ccc(OC)cc2)C(=O)N[C@@H](C(C)C)C(=O)N(C)[C@@H](Cc2ccc(O)cc2)C(=O)N1C", "target or system": "2,3-bisphosphoglycerate-independent phosphoglycerate mutase", "assay": "biochemical", "endpoint": "AC50", "value": "5620 nM"}
{"SMILES": "Cc1nc(=O)c2cc(CN(C)c3ccc(C(=O)NCCN4C(=O)NC(=O)[C@H]4C)s3)ccc2[nH]1", "target or system": "4'-phosphopantetheinyl transferase PptT", "assay": "enzyme activity, inhibitor, fluorescence polarization", "setting": "enzyme 100 nM", "endpoint": "IC50", "value": "2690 nM"}
{"SMILES": "CC(C)(C)C1CCc2c(sc3nc(SCCN4CCCC4)nc(N)c23)C1 (stereo not drawn)", "target or system": "eis (Mycobacterium tuberculosis, UniProt P9WFK7)", "assay": "inhibitor", "endpoint": "IC50", "value": "23000 ± 5000 nM"}
{"SMILES": "CC(=O)N[C@H](Cc1c[nH]cn1)C(=O)N[C@H](CCCCN)C(=O)N[C@H](CCCCN)C(=O)N[C@H](CCCCN)C(=O)N[C@H](CCCCN)C(=O)N[C@H](CCCCN)C(=O)N[C@H](CCCNC(=N)N)C(=O)N[C@H](CC(C)C)C(=O)N1CCC[C@@H]1C(=O)N1CCC[C@@H]1C(=O)N[C@H](CCCNC(=N)N)C(=O)N[C@H](CCCNC(=N)N)C(=O)N[C@H](CCCNC(=N)N)C(=O)N[C@H](CCC(N)=O)C(=O)N[C@H](CCCNC(=N)N)C(=O)N[C@H](CCCNC(=N)N)C(=O)N[C@H](CCCCN)C(=O)N[C@H](CCCCN)C(=O)N[C@H](CCCNC(=N)N)C(=O)NCC(=O)N[C@H](Cc1ccc(O)cc1)C(N)=O", "target or system": "PRKACA (Homo sapiens, UniProt P17612)", "assay": "enzyme activity, inhibitor", "endpoint": "Ki", "value": "9900 nM"}
{"SMILES": "CC(C)(C)OC(=O)NCCC[C@H](NC(=O)c1ccc(NCc2ccc3nc(N)nc(N)c3c2Cl)cc1)C(=O)O", "target or system": "4'-phosphopantetheinyl transferase PptT", "assay": "enzyme activity, inhibitor, fluorescence polarization", "setting": "enzyme 100 nM", "endpoint": "IC50", "value": "> 25000 nM"}
{"SMILES": "C[C@@H](NC(=O)[C@@H](CCC(N)=O)NC(=O)[C@@H](C)NC(=O)[C@@H](CCCCN)NC(=O)[C@@H](CCC(N)=O)NC(=O)[C@@H](C)NC(=O)[C@@H](CCCCN)NC(=O)[C@@H](CCC(N)=O)NC(=O)[C@@H](C)NC(=O)[C@@H](CCC(N)=O)NC(=O)[C@@H](CCCCN)NC(=O)[C@@H](C)NC(=O)[C@@H](CCC(N)=O)NC(=O)[C@@H](CCCCN)NC(=O)[C@@H](C)NC(=O)[C@@H](CCC(N)=O)NC(=O)[C@@H](C)NC(=O)[C@@H](CCCCN)NC(=O)[C@@H](CCC(N)=O)NC(=O)[C@@H](C)NC(=O)[C@@H](CCCCN)NC(=O)[C@@H](CO)NC(=O)[C@@H](Cc1ccc(O)cc1)NC(=O)CNC(=O)CNC(=O)CN)C(=O)N[C@H](CCCCN)C(=O)N[C@H](CCC(N)=O)C(=O)N[C@H](C)C(=O)N[C@H](CCCCN)C(=O)N[C@H](CCC(N)=O)C(=O)O", "assay": "binding, SPR two-state model", "system": "rVλ6Wil fibrils", "setting": "300 nM", "endpoint": "kd2", "value": "0.0017 s⁻¹"}
{"note": "Excerpt of the above:"}
{"SMILES": "COc1ccc(C[C@@H]2NC(=O)[C@H](Cc3ccc(O)cc3)NC(=O)[C@H](CO)NC(=O)[C@H](CC(=O)O)NC(=O)[C@H](Cc3ccc(O)cc3)NC(=O)[C@H](Cc3c[nH]c4ccccc34)NC(=O)[C@@H](Cc3ccc(O)cc3)NC(=O)CSC[C@@H](C(N)=O)NC(=O)[C@H]([C@@H](C)O)NC(=O)[C@H](Cc3ccc(O)cc3)NC(=O)[C@H](CCC(N)=O)NC(=O)[C@H](C)NC(=O)[C@H]([C@@H](C)O)NC(=O)CNC(=O)[C@@H]3CCCN3C(=O)[C@H](Cc3ccc(O)cc3)NC2=O)cc1", "target or system": "gpmI", "assay": "biochemical", "endpoint": "AC50", "value": "22400 nM"}
{"SMILES": "CC(C)(C)OC(=O)NCCC[C@H](NC(=O)c1ccc(NCc2ccc3nc(N)nc(N)c3c2Cl)cc1)C(=O)O", "target or system": "4'-phosphopantetheinyl transferase PptT", "assay": "enzyme activity, inhibitor, fluorescence polarization", "setting": "enzyme 100 nM", "endpoint": "IC50", "value": "> 25000 nM"}
{"SMILES": "Cc1sc(-n2c(C)c3c(C)nnc(C)c3c2C)nc1-c1ccc(Br)cc1", "target or system": "4'-phosphopantetheinyl transferase PptT", "assay": "enzyme activity, inhibitor, FP", "endpoint": "IC50", "value": "350 nM"}
